Results from different studies.
Parts stem from different laboratories: compare values within a part only. Values joined by “and” are separate records of one study, mostly repeats; a detail may differ.
Chain of UniProt P41240 (whole entry, looked up): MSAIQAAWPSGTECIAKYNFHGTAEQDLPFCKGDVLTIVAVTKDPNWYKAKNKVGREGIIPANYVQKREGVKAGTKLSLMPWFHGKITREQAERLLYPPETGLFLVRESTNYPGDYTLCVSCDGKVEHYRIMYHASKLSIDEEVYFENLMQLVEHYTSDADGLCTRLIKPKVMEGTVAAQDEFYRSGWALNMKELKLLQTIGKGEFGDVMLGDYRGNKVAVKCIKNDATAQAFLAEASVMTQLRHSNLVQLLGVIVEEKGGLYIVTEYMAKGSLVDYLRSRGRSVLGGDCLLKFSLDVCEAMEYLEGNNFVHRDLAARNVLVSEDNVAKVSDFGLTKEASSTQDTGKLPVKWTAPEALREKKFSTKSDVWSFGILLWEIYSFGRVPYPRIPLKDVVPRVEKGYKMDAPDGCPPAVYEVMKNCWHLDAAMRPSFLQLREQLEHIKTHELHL
Chain of UniProt P49840 (whole entry, looked up): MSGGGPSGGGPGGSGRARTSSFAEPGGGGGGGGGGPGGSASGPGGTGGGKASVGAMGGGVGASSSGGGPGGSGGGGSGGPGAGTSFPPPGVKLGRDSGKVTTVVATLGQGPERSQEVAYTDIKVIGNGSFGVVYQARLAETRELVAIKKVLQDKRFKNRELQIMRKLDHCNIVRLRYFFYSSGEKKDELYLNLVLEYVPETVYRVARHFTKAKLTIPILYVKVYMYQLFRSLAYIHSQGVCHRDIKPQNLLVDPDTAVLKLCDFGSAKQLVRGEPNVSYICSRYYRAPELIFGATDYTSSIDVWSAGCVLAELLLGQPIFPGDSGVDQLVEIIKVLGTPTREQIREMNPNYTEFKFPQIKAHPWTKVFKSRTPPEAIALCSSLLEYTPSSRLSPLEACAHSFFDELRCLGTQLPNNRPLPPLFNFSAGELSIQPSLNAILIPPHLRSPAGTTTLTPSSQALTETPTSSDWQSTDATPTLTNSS
Chain of UniProt P16257 (whole entry, looked up): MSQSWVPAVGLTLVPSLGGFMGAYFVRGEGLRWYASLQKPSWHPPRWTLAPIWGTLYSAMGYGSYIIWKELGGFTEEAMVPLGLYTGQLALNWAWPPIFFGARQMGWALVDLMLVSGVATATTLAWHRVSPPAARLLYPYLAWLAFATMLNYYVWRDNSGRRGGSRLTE
Chain of UniProt Q9P1W9 (whole entry, looked up): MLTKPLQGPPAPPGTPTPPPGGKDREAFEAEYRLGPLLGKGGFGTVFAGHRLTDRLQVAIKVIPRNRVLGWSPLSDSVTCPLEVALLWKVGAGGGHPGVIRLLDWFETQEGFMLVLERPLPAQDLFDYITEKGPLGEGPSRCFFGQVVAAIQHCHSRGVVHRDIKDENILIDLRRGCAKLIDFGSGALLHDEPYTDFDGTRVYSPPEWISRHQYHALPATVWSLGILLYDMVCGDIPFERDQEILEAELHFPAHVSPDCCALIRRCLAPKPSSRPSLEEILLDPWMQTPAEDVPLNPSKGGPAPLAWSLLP
Chain of UniProt O00141 (whole entry, looked up): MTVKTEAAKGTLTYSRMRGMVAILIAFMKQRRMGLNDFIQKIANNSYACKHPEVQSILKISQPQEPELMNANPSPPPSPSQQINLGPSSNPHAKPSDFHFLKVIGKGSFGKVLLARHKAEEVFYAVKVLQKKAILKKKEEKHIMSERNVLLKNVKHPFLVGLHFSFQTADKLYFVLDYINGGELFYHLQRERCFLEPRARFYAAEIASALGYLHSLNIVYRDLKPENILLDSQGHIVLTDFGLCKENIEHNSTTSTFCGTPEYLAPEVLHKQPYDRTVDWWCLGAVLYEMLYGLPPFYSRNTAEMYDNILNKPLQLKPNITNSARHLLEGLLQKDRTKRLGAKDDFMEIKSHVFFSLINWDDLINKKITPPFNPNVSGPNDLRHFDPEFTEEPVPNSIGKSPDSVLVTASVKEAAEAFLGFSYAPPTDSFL
Chain of UniProt Q13177 (whole entry, looked up): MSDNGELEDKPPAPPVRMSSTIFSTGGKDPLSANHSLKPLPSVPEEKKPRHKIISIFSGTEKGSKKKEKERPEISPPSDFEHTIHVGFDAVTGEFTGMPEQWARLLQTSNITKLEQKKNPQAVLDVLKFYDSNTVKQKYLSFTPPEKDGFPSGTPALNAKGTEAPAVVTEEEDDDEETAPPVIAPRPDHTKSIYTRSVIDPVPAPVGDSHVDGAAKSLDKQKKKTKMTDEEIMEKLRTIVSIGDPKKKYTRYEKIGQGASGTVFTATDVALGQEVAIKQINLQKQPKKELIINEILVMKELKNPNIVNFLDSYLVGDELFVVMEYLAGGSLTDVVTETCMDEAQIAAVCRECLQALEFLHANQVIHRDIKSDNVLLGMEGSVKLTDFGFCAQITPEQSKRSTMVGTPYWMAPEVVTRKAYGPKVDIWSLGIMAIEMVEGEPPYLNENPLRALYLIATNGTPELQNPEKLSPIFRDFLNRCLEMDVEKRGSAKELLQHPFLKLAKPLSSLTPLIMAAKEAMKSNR
Chain of UniProt Q9UQB9 (whole entry, looked up): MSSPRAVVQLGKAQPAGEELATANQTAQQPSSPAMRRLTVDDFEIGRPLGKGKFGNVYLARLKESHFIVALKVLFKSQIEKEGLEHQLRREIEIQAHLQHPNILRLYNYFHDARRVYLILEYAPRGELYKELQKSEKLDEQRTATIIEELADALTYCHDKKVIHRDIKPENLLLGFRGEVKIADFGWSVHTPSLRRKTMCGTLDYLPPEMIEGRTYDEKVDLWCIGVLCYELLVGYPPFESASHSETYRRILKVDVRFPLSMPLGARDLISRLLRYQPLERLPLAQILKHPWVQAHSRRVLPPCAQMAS
Chain of UniProt O60285 (whole entry, looked up): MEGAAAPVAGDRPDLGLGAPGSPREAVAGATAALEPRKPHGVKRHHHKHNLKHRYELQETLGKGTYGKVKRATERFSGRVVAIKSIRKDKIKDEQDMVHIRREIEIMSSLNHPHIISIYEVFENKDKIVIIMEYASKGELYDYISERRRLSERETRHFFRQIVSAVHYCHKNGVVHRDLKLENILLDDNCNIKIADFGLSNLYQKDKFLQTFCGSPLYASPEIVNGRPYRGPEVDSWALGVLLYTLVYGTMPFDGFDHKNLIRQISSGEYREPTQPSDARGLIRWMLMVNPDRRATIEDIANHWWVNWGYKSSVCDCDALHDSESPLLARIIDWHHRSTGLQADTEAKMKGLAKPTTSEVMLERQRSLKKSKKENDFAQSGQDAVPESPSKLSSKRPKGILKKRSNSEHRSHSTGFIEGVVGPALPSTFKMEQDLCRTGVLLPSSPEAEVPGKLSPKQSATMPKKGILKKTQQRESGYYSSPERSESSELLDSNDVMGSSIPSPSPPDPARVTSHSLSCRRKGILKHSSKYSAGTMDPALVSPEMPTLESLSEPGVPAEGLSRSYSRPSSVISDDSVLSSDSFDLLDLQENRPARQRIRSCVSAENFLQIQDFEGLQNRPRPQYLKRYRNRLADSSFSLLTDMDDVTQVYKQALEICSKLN

Sample 1 — cell line: HH; tested at: 2 µM; time: 48 h; relative to: untreated; measurement: viability
Structure (SMILES) = CCn1c(N)c(C(=O)NC)c(=O)c2ccc(C#C[C@@](C)(O)COC)nc21; result = 95.9%
Structure (SMILES) = CCCCCCCCCCCCCCCCCCOP(=O)([O-])OC1CC[N+](C)(C)CC1; result = 88.6%
Structure (SMILES) = O=C(NCc1cccc(O)c1)Nc1nc(-c2ccncc2)cs1; result = 30.4%
Structure (SMILES) = Oc1ccc(Nc2nc(-c3ccc(Cl)cc3)cs2)cc1; result = 80.8%
Structure (SMILES) = CCCCCCCCCCCCc1ccc(S(=O)(=O)Nc2nncs2)cc1; result = 81.9%
Structure (SMILES) = COc1ccc(-c2ccc3ncc4c(c3c2)n(-c2ccc(N3CCNCC3)c(C(F)(F)F)c2)c(=O)n4C)cn1; result = 6.44%
Structure (SMILES) = C=CC(=O)Nc1cccc(Nc2nc(Nc3ccc(N4CCN(C(C)=O)CC4)cc3OC)ncc2C(F)(F)F)c1; result = 69.3%
Structure (SMILES) = CN1CCCN(C(=O)c2cccc(-c3ccc(/C=C4/C(=O)Nc5ccc(Cl)cc54)o3)c2)CC1; result = 77.6%
Structure (SMILES) = C[C@@H]1CCN(C(=O)CC#N)C[C@@H]1N(C)c1ncnc2[nH]ccc12; result = 75.2%
Structure (SMILES) = CC(C)(C)c1cnc(CSc2cnc(NC(=O)C3CCNCC3)s2)o1; result = 8.03%
Structure (SMILES) = O=c1[nH]nc(Sc2ncc([N+](=O)[O-])s2)n1-c1ccc2c(c1)OCCO2; result = 58.4%

Sample 2 — cell line: mouse MPNST tumor cells; method: high-content immunofluorescence imaging; refers to: nuclear SOX9; tested at: 10 µM; time: 12 h; notes: mean of 2 replicates; relative to: DMSO control; direction: higher = more nuclear SOX9; measurement: nuclear SOX9 intensity
SMILES = CCn1cc(-c2cccc(C(F)(F)F)c2)c2sc(C(=N)NC3CCS(=O)(=O)CC3)cc2c1=O; result = 139 % of DMSO and 176 % of DMSO
SMILES = C[C@@H](Oc1nnc(-c2ccncc2)n1C)c1cc(-c2cccc(Cl)c2)on1; result = 93.1 % of DMSO
SMILES = C=C1/C(=C\C=C2/CCC[C@]3(C)[C@@H]([C@H](C)/C=C/[C@@H](O)C4CC4)CC[C@@H]23)C[C@@H](O)C[C@@H]1O; result = 96.6 % of DMSO
SMILES = O=C(c1ccc(F)cc1)C1CCN(CCCCc2ccccc2)CC1; result = 125 % of DMSO
SMILES = Cc1ccc(C)c(OCCCC(C)(C)C(=O)O)c1; result = 136 % of DMSO
SMILES = Nc1nc2c(cnn2CCc2ccccc2)c2nc(-c3ccco3)nn12; result = 137 % of DMSO
SMILES = CCCCCCC(=O)OC1CC(C)(C)NC(C)(C)C1; result = 97.3 % of DMSO
SMILES = CC(C)c1nc(N(C)S(C)(=O)=O)nc(-c2ccc(F)cc2)c1/C=C/[C@@H](O)C[C@@H](O)CC(=O)O; result = 100 % of DMSO
SMILES = Cc1ccc2c(=O)c3cccc(CC(=O)O)c3oc2c1C; result = 96.4 % of DMSO

Sample 3 — observed: enzyme activity; mode: inhibitor; tested at: 0.5 µM; relative to: control; measurement: remaining activity
SMILES: Oc1cccc(-c2nc(N3CCOCC3)c3oc4ncccc4c3n2)c1
target = NUAK1 (Homo sapiens, UniProt O60285); result = 86.6%
target = PIM2 (Homo sapiens, UniProt Q9P1W9); result = 96.9%
target = PRKCG (Homo sapiens, UniProt P05129); result = 102%
target = CSK (Homo sapiens, UniProt P41240); result = 88.3%
target = GSK3A (Homo sapiens, UniProt P49840); result = 90.2%
target = SGK1 (Homo sapiens, UniProt O00141); result = 100%
target = Aurora kinase C (AURKC, Homo sapiens, UniProt Q9UQB9); result = 98.1%
target = PAK2 (Homo sapiens, UniProt Q13177); result = 97.5%

Mixed results
Compound = CN(C)[C@@H]1CCN(c2cc(-c3ccccc3)nc3ccnn23)C1; target = Translocator protein (Tspo, Rattus norvegicus, UniProt P16257); assay = binding, radioligand binding; setting = 10 µM; measurement = inhibition; result = 11.6%

Excerpt of the above (sample 3):
target = GSK3A (Homo sapiens, UniProt P49840); result = 90.2%
target = SGK1 (Homo sapiens, UniProt O00141); result = 100%
target = Aurora kinase C (AURKC, Homo sapiens, UniProt Q9UQB9); result = 98.1%
target = PAK2 (Homo sapiens, UniProt Q13177); result = 97.5%
